Measurements pooled from the literature.
Protocols differ between the studies behind these lines. Values joined by “and” are separate records of one study, mostly repeats; a detail may differ. ± gives the spread as reported.
TDP1: Tyrosyl-DNA phosphodiesterase 1 (TDP1, Homo sapiens, UniProt Q9NUW8)
Sequence of UniProt Q9NUW8 (whole entry, looked up): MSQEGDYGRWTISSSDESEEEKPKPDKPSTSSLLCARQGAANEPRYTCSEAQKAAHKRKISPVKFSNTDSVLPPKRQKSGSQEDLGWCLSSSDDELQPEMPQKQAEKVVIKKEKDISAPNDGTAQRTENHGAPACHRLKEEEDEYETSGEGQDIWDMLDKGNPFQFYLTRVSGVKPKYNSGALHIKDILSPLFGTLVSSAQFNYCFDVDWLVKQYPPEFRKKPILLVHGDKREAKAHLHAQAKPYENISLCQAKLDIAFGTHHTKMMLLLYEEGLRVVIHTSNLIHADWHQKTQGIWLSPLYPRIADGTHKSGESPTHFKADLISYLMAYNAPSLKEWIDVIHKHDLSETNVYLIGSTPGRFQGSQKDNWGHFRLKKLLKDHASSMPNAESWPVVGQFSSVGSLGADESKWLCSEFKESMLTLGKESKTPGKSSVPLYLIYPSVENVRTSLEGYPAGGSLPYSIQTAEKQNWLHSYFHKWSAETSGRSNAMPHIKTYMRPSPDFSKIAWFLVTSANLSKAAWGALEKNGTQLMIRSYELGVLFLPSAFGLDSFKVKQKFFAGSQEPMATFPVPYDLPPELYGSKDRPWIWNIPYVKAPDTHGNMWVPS

COc1ccc(C2CC(Nc3ccc(-c4ccc(NC5=NOC(c6ccc(OC)cc6)C5)cc4)cc3)=NO2)cc1 (centres unmarked) gave an inhibition of 50.7% (carrageenan paw oedema; albino rat; oral, 50 mg/kg, 3 h; relative to: vehicle).
With CC(=O)[O-].O.O.O.O.[Mn+2].[O-]c1ccc(Br)cc1C=NCCN1CCOCC1 the inhibition was 14.7% (hydroxyl radical scavenging; 80 µM).
With COc1ccc(C=CC(=O)Nc2ccc(-c3ccc(NC(=O)C=Cc4ccc(OC)cc4)cc3)cc2)cc1 the inhibition was 35.1% (carrageenan paw oedema; albino rat; oral, 50 mg/kg, 3 h; relative to: vehicle).
COc1ccc(NC(=O)c2ccc3[nH]c(-c4ccc(N(C)C)cc4)nc3c2)cn1 has a tumour volume of 186 mm3 and 113 mm3 and 239 mm3 and 110 mm3 (Lewis lung carcinoma, mice, syngeneic graft, subcutaneous; intraperitoneal, 25 mg/kg daily, day 0).
Cc1cnc2nc1Nc1cccc(c1)COC/C=C/COCc1cc(ccc1OCCN1CCOCC1)N2 gave a reticulocytes of 12.5% and 12.3% and 12.1% and 11.9% and 13.5% (BALB/c mice rhEPO-induced polycythemia; 75 mg/kg).
For Nc1nc2cc(CC[C@H]3C[C@@H](n4ccc5c(N)ncnc54)[C@H](O)[C@@H]3O)ccc2cc1Br, the tumour volume was 26 ± 3 mm3 (NCI-H520 xenograft, mouse; 10.0 mg/kg/day, day 27).
COCC1CN(C2CCN(c3cc(OC)c(Nc4ncc(Br)c(Nc5ccc6c(c5P(C)(C)=O)OCCO6)n4)cc3C)CC2)C1 gave a progressive disease of 66.7% (RECIST 1.1; advanced EGFR-mutant NSCLC patients; 150 mg once daily).
With COCCOCCOCCNC(=O)Cc1cc(CC(=O)N[C@H]2C[C@H]3C(=O)Nc4cc(OCCOCCOCCOC)cc(n4)C(=O)N4CCC[C@H]4C(=O)Nc4cc(OCCOCCOCCOC)cc(n4)C(=O)N4CCC[C@H]4C(=O)Nc4cc(OCCOCCOCCOC)cc(n4)C(=O)N3C2)cc(CC(=O)N[C@H]2C[C@H]3C(=O)Nc4cc(OCCOCCOCCOC)cc(n4)C(=O)N4CCC[C@H]4C(=O)Nc4cc(OCCOCCOCCOC)cc(n4)C(=O)N4CCC[C@H]4C(=O)Nc4cc(OCCOCCOCCOC)cc(n4)C(=O)N3C2)c1 the TΔS was 5.856 ± 0.0239 kcal/mol (anion binding, ITC; water/acetonitrile 95 vol% (98.2 mol%); 298 K, added: sodium sulfate).
CC(C)=CCc1cc(C(=O)/C=C/c2ccc(O)cc2)c(O)cc1O gave a Vmax of 117 ± 9.84 pmol/min/mg (oxidised metabolite formation, substrate; human liver microsomes; added: NADPH).
With CC(C)(C)NCC(SS(=O)(=O)O)c1ccccc1 (centres unmarked) the spleen weight was 0.97 g and 0.48 g and 0.96 g and 0.53 g (mouse infected with Schistosoma mansoni; 600 mg/kg, day 7 post-infection dosing once, perfusion day 52 post-infection).
The food intake of CC[C@H](C)[C@@H](C(=O)N[C@@H](CC(C)C)C(=O)N[C@@H](CO)C(=O)N[C@@H](CO)C(=O)N[C@H](C(=O)N[C@@H](CCC(=O)O)C(=O)N[C@H](C(=O)NCC(=O)N[C@@H](CO)C(=O)NCC(=O)N[C@H](C(=O)N1C[C@H](O)C[C@H]1C(N)=O)[C@@H](C)O)C(C)C)[C@@H](C)O)N(C)C(=O)[C@H](C)NC(=O)CN(C)C(=O)[C@H](Cc1ccccc1)NC(=O)[C@H](CO)NC(=O)[C@H](CO)NC(=O)[C@H](CCCNC(=N)N)NC(=O)[C@@H](NC(=O)[C@H](CC(C)C)NC(=O)[C@H](Cc1ccccc1)NC(=O)[C@H](Cc1c[nH]cn1)NC(=O)[C@H](C)NC(=O)[C@H](CC(C)C)NC(=O)[C@H](CCCNC(=N)N)NC(=O)[C@H](CCC(=O)O)NC(=O)[C@@H](NC(=O)[C@H](C)NC(=O)[C@@H]1CSSC[C@H](NC(=O)[C@H](CCCNC(=N)N)NC(=O)CC[C@H](NC(=O)CCCCCCCCCCCCCCCCCCC(=O)O)C(=O)O)C(=O)NCC(=O)N[C@@H]([C@@H](C)O)C(=O)N[C@@H](C)C(=O)N[C@@H]([C@@H](C)O)C(=O)N1)[C@@H](C)O)[C@@H](C)O is reported as 76.9 ± 4% (male Sprague-Dawley rats; subcutaneous, 30 nmol/kg single dose, 24 h; relative to: vehicle).
CCCC[N+]1=c2cc3c4cc2[O][Mn-2]1(=[C]=O)(=[C]=O)(=[C]=O)[n+]1ccc(cc1)C(=O)Nc1ccccc1NC(=O)c1cc[n+](cc1)[Mn-2](=[C]=O)(=[C]=O)(=[C]=O)([O]3)[N+]=4CCCC — result for “apparent CO release rate constant”: 0.00212 s⁻¹ (myoglobin; equine heart myoglobin; added: green LED light).
COc1cnc2cccc(N3CCc4c(cc(Cn5ccnc5)cc4-c4cn(C)nc4C(F)(F)F)C3=O)c2c1 has a tumour volume of 143 mm3 and 138 mm3 and 141 mm3 and 151 mm3 and 127 mm3 and 134 mm3 (BALB/c nude mice, MV4-11 xenograft; intraperitoneal, 75 mg/kg, day 21).
O=C(O)c1ccc(Nc2c(-c3ccc(CON=Cc4ccc(-c5nnn[nH]5)cc4)cc3)nc3cc(-c4ccccc4)ccn23)cc1 gave an inhibition of 96.6% (TDP1; enzyme activity, inhibitor; 100 µM, unpurified compound).
For COc1cc(O)ccc1CCC(c1ccc(O)cc1)c1cc2c(c(C)c1O)OC(c1ccc(O)cc1)CC2 (mixture of isomers), the amount was 105 ± 32 pg/mL blood (refers to: 5-HEPE; human whole blood; 0.3 µM, added: Escherichia coli).
For COC1CN([C@H]2CC[C@H]([C@@]3(C)Oc4c(Cl)cc(C(=O)NCc5c(SC)cc(C)[nH]c5=O)c(C)c4O3)CC2)C1, “log2 fold change” read 0.125 (RNA-seq, refers to: COL4A2 mouse homolog; mouse, HT-1376 xenograft, whole blood; dose not given; relative to: vehicle).
N#CSCc1ccc(C=NOCc2ccc(-c3nc4cc(-c5ccccc5)ccn4c3Nc3ccc(C(=O)O)cc3)cc2)o1 gave an inhibition of 101% (TDP1; enzyme activity, inhibitor; 100 µM).
CC(=O)NCC(=O)N[C@@H](Cc1ccccc1)C(=O)N[C@@H](Cc1ccccc1)C(=O)N[C@@H](Cc1ccc(O)cc1)C(=O)NCC(=O)N[C@@H](Cc1ccc(O)cc1)C(=O)NCC(=O)N[C@@H](CO)C(=O)N[C@@H](CO)C(=O)N[C@@H](CO)C(=O)N[C@@H](CCCNC(=N)N)C(=O)N[C@@H](CCCNC(=N)N)C(=O)N[C@@H](C)C(=O)N1CCC[C@H]1C(=O)N[C@@H](CCC(N)=O)C(=O)N[C@H](C(=O)O)[C@@H](C)O: “optimal hair growth concentration” 2 µM (male C57BL/6 mice depilated; topical, 300 µL once daily).
For CN1CCC[C@]1(C)/C=C/S(=O)(=O)NC(=O)Nc1c2c(cc3c1CCC3)CCC2, the IL-18 inhibition was 128% (human, whole blood ex vivo; 100 mg single dose, 12 h, single ascending dose, added: LPS and ATP).
COc1ccc(C(=O)CCc2cc(C(CCc3ccc(O)cc3OC)c3ccc(O)cc3)c(O)cc2OC)cc1 (racemic) has a 15-HETE level of 358 ± 134 pg/mL (human blood; 3 µM, added: A23187).

Repeated from above:
For Nc1nc2cc(CC[C@H]3C[C@@H](n4ccc5c(N)ncnc54)[C@H](O)[C@@H]3O)ccc2cc1Br, the tumour volume was 26 ± 3 mm3 (NCI-H520 xenograft, mouse; 10.0 mg/kg/day, day 27).
COCC1CN(C2CCN(c3cc(OC)c(Nc4ncc(Br)c(Nc5ccc6c(c5P(C)(C)=O)OCCO6)n4)cc3C)CC2)C1 gave a progressive disease of 66.7% (RECIST 1.1; advanced EGFR-mutant NSCLC patients; 150 mg once daily).
With COCCOCCOCCNC(=O)Cc1cc(CC(=O)N[C@H]2C[C@H]3C(=O)Nc4cc(OCCOCCOCCOC)cc(n4)C(=O)N4CCC[C@H]4C(=O)Nc4cc(OCCOCCOCCOC)cc(n4)C(=O)N4CCC[C@H]4C(=O)Nc4cc(OCCOCCOCCOC)cc(n4)C(=O)N3C2)cc(CC(=O)N[C@H]2C[C@H]3C(=O)Nc4cc(OCCOCCOCCOC)cc(n4)C(=O)N4CCC[C@H]4C(=O)Nc4cc(OCCOCCOCCOC)cc(n4)C(=O)N4CCC[C@H]4C(=O)Nc4cc(OCCOCCOCCOC)cc(n4)C(=O)N3C2)c1 the TΔS was 5.856 ± 0.0239 kcal/mol (anion binding, ITC; water/acetonitrile 95 vol% (98.2 mol%); 298 K, added: sodium sulfate).
